Results of several laboratories.
Parts stem from different laboratories: compare values within a part only. Positions count from the first letter of the parent shown.

Block 1 — technique: RNA Bind-n-Seq; molecule type: RNA; medium: in vitro; concentration: 365 nM; reference: no-protein control; reading: higher = stronger binding
Target: RNA binding protein fox-1 homolog 2, RRM domain, GST-SBP tag (RBFOX2, Homo sapiens, UniProt O43251-10, residues 100-194)
Setting: natural RNA segment, single round, ends assumed
Target sequence (chain): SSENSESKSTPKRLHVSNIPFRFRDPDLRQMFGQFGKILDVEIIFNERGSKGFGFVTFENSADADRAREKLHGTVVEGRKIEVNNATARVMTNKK
Strand	RBNS enrichment (R)
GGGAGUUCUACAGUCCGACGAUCCAGUCCUAAAGGCUUCUGUGAAGGAAACCACAGAAAGUGAAAGAAGCAGAAUUAGAAAGAGCAUUCCCCACUUGCAGUGUCCUUCUCACAGGGAAGUCAGACGGUGGAAGUGGAAUUCUCGGGUGCCAA	0.309
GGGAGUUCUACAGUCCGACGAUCUAGUUAUAUUCCUACAAUACAAUUUUAAAAUUGUCUUUUUAUAUUAUAUUUAUGCUUCUGUGUCAUGAUUUUUUCAAGCUGUUAUAUUAGUUGUAACCAGUAGUAUUCACUGGAAUUCUCGGGUGCCAA	1.8
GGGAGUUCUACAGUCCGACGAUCUGCCUGAUGGCUUAGCCUGGAGACCUCCUCAUUGCCAAAGUUGUUCCCAUGCCACAAAGCAUCUCUCCACCCCCUUUUCAAGGAAUGCAGUUCUACAAACUGAUCUCCUUUGGAAUUCUCGGGUGCCAA	0.448
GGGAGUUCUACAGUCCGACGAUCCCUCUGGCACAUUUCCUCUCCUGCCUCUGCUUGAAAAGGAAACCAGAAGCCGAACAAGUGAGAGUAAUGUAUAAUUCUCUCAUUUUUUUGUAGGUCUCUAAUAAAGAACUUGGAAUUCUCGGGUGCCAA	0.202
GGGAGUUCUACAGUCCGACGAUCUUCCCGUCCUCCCGCAGUCAGAAAGGAGACUCUGCCUCCCUCCUCCUCACUGAGUGCCUCAUCCUACCGGGUGUCCCUUUGCCACCCUGCCUGGGACAUCGCUGGAACCUUGGAAUUCUCGGGUGCCAA	0.565
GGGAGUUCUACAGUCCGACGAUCUAACCAGGAUGCUUAUGUUCUUAAGUCUAUAUUUGCAUAUACAUUGACUCUUGAUGGAAAGACUUAAGAAGAUCAAGGUCUCACCAUUUGUCCUCAAUUCGUGUGACCAUUGGAAUUCUCGGGUGCCAA	0.428
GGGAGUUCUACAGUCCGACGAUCAUUGUUACCUCCUGUUGUUUUGUUACUGAGUAAGAUAACUUUGUUGAAUAAAGACCUUUAUCCCCAAGGUCUCUGUCUAUUUCCUGGGUGUCAUGGUCUGGGGCUAGACUUGGAAUUCUCGGGUGCCAA	0.717
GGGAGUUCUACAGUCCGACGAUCAUUCAUUCACGUGGCCUCUGCUCCUGUGUGGUCUGAGCAGGCUUCAUCUCUGUUUCUCUCAAGGCGUGUGCUUGGGCAGCUUGAGGUGAGGUUUUUCCUUCCCUGUGAAGUGGAAUUCUCGGGUGCCAA	0.707

Block 2 — technique: protein-binding microarray; molecule type: double-stranded DNA, one strand shown; medium: in vitro; concentration: 0.8 µM; setting: whole 60-bp probe, no competitor; reading: higher = stronger binding
Target: Centromere-binding protein 1, full length, N-terminal tag (CBF1, Saccharomyces cerevisiae, UniProt P17106, residues 1-351)
UniProt P17106, sequence (whole entry, looked up): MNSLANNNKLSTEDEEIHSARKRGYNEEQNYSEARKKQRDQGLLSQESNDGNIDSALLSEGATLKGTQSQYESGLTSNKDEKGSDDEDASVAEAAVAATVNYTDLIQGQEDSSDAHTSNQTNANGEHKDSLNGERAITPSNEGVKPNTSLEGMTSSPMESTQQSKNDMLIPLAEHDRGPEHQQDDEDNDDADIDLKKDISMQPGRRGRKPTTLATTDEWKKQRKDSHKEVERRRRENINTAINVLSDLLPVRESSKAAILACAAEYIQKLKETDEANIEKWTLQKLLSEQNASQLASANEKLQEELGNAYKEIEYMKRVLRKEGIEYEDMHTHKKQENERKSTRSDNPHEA
Strand	fluorescence intensity [a.u.]
CTAGCCCCTAGATGTCACCTGAGCTGTAGTCAATTCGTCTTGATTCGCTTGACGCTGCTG	1080
CTAAGCTTATCAAAGCAGATCACAACGATTATATTCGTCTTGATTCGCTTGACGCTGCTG	502
GAATTGATCAATCGTGACTAGTTCGCGTTTTGATAGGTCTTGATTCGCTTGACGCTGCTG	791
GAATTGACAGCACATGTGATTTATAGTTCTCCTTAGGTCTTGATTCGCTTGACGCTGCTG	3080
GAACCTACATAATTCAGCGTGATATGATGGAGTTAGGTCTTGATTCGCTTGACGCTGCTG	632
GAAATTTGTGTCAACGGCGTGCTCTATTCCTTGTAGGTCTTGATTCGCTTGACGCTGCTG	566
CTAGAATATCCGGGTGATGGGCTGGATTGGCAATTCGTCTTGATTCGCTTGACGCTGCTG	483
CTATTGTATCAGGCTAACGTGCACTTGGAAGGTTTCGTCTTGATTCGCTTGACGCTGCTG	580

Block 3 — technique: protein-binding microarray; molecule type: double-stranded DNA, one strand shown; medium: in vitro; concentration: 940 nM top; setting: 60-bp whole probe; added: salmon DNA 0.4 mg/ml; reference: random background probes; reading: higher = stronger binding; all sequences stand within: GCCTAGCAC … GTCTTGATTCGCTTGACGCTGCTG
Target: Interferon regulatory factor 5, full length, phosphomimetic (IRF5, Homo sapiens, UniProt Q13568-2, residues 1-514, S451D/S453D/S456D/S462D)
Strand	fitted relative affinity [z-score]
ATTTTTTTCTAAGTAAACCCGTGCTAG	0.541
GACGAATTCGGGTATCGAGACGTGCTA	1.06
TAAGGTCTCGGTATCGGTTAGTGCTAG	6.3
CTAACTTTCCAATTGTCCTTGTGCTAG	1.28
GACGGTTTCGGGCTCGGGACGTGCTAG	7.66
TCAGGTTTTTTTTTAATACTGTGCTAG	0.536
GACGGTTCCGGTTTCGGGGCGTGCTAG	5.24
GACGATATCGGGGTTCGAGACGTGCTA	0.0645
GACGATATCGGGTACCGAGACGTGCTA	-0.175
TTAGGTATCGATATCGGTTAGTGCTAG	9.77
GCTCCTTCCCCTCTAGGTCTGTGCTAG	0.383
TTAGGTCTCGTTCTCGGTTAGTGCTAG	3.95
TTTATTTTTACATTATTACCGTGCTAG	0.914
GACGATCTCAGAGTGGAGACGTGCTAG	-0.588
AACGGTTTCGGGTATCGGGACGTGCTA	9.28

Block 4 — technique: RNA Bind-n-Seq; molecule type: RNA; medium: in vitro; concentration: not given; reference: input RNA pool; reading: higher = stronger binding
Target: RING finger protein unkempt homolog, zinc fingers 1-6, GST-SBP tag (UNK, Homo sapiens, UniProt Q9C0B0, residues 30-357)
UniProt Q9C0B0, sequence (30-357, looked up): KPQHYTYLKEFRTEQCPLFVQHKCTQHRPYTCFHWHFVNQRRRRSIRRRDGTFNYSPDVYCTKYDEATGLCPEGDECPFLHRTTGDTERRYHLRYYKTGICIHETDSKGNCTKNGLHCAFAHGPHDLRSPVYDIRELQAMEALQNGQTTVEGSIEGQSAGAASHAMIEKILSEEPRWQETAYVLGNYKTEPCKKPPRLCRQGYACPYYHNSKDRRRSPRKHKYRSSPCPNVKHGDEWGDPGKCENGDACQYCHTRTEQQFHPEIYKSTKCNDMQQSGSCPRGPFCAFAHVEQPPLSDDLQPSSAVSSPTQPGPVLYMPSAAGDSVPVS
Setting: RNA with constant flanks, human and mouse sites, ends assumed
Strand	bound/input enrichment [ratio]
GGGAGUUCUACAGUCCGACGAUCUAAGAAAUUGUUAUUCUGCUAAUAUUUACUUGUGAUUGUGUGACAAGCGUGUUUACAGAUGAUUUGGUUCCACUUCUUUACAGGGCAUAAACAAUGAUUAUCUAUUACUCUGAACUUUAUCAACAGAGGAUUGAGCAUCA	0.355
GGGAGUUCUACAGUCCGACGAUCCCAAAUACUGAUGACCUGUUCAAAGCAGUUGGUGAUGGGAUCGUGCUCUGCAAAAUGAUCAACCUUUCAGUUCCUGAUACAAUUGACGAGAGAGCAAUCAAUAAGAAGAAGCUUACACCCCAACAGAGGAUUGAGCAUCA	0.0537
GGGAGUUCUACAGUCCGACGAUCGGUUGUUUCAAUCUAACAGUCAAAGGUCAUGCUAAAUGUGUAGAAGUUGUAAAAACUUUUAACUUACCAUUACUGAUGCUUGGAGGAGGUGGCUACACAAUCCGUAAUGUUGCUCGAUGUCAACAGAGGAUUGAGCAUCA	0.249
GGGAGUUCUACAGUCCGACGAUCGUUGGACUCAUUCAGGGAGCUGCUAUGGCUAUACUGGUUGCUUUGUAUGUAUCCGAUUUCUUCAAGGACACACAUUCUUACAAAGAGAGAAAGGAAGAGGAUCCACACACGACUCUCCAUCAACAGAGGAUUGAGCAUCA	0.26
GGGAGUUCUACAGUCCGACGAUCCAUAUGCAAAAUCUGUUUCUACUACAAUGUUAUUUUUACUAAUGCCUUAUUGUUGCACUCUUUUUGAAAUAUCCUGCAGUGAAUAUAUGAAUCAAUUUGGGCUUAAAACUGAAAGCCAGUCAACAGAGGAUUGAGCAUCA	0.443
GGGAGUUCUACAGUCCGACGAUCGCUCUGACUGUAUAGAGAGGGGUGUGCACAUAUGUCCCCACCCUCCGGUCUUCCUUUCCUUUUAGGGUGACACUACAGAGUCAUUCAGCCAAAUCCGUCUACUGCCUCUCCUCCUCAGCCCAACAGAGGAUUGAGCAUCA	0.272
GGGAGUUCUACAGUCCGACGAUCUGGUUCCUGGAAGCUGAAGGCAAUGAAUGGCUACUUCAAGAACAGACCCCAUCUGGAGACAUAGAGAAUAUUUCCAAUCAGCCGGCGAUUUCCCUGCAGAUUCCUACCCAUUGCUUGUCACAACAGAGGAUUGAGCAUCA	0.229

Block 5 — technique: DHFR PCA, deep sequencing; medium: yeast; added: (+)-ABA 2500 µM; reference: wild-type fitted maximum; reading: higher = stronger binding
Target: ABI1, truncated, D143A, DHFR fusion (Arabidopsis thaliana)
Setting: methotrexate growth selection, single substitutions
Parent: PYL1, truncated, DHFR fusion (Arabidopsis thaliana); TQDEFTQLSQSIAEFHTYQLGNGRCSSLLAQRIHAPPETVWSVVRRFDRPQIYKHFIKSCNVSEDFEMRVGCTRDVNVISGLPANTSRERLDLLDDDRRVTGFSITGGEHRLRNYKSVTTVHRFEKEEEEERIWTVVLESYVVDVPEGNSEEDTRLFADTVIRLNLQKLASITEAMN; partner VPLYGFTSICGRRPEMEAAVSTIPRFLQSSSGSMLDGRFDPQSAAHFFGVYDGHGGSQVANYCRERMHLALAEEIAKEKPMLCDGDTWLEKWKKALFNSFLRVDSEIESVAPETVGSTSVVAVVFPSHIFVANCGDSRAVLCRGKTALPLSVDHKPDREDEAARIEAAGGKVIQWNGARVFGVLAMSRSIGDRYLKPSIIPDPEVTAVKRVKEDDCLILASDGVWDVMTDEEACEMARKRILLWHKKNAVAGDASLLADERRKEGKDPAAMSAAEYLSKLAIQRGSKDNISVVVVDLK
Substitution	relative binding score [%]
F157D	1.04
L169G	2.15
A30G	96.2
F5Y	88.8
N22L	100
N61E	102
D144L	82.2
K116W	50.6
S42D	110
S11V	105

Repeated from above (block 3):
Strand	fitted relative affinity [z-score]
GACGATCTCAGAGTGGAGACGTGCTAG	-0.588
ATTTTTTTCTAAGTAAACCCGTGCTAG	0.541
TTAGGTATCGATATCGGTTAGTGCTAG	9.77
GACGATATCGGGTACCGAGACGTGCTA	-0.175
